Experimental data gathered from unrelated publications.
Lines come from different studies, so protocols differ. ± gives the spread as reported.

Structure (SMILES)	target or system	test	test system	setting	scale	measurement	value
COC1OC(C)C(O)C(OC2OC(C)C(O)C(OC3OC(C)C(O)C(OC4OC(C)C(O)C(OC5OC(C)C(O)C(OS(=O)(=O)O)C5OS(=O)(=O)O)C4OS(=O)(=O)O)C3OS(=O)(=O)O)C2OS(=O)(=O)O)C1OS(=O)(=O)O (centres unmarked)			human plasma	128 µg/mL		prothrombin time	14.7 ± 0.5 s
C[n+]1cccc2cc(/C=N/NC(=O)N/N=C/c3ccc4c(ccc[n+]4C)c3)ccc21	MYC parallel G4 DNA	FRET melting		1 µM, DNA 0.2 µM, added: duplex DNA competitor 10 µM		ΔTm	3.9 ± 0.2 °C
CN1CCC[C@]1(C)/C=C/S(=O)(=O)NC(=O)Nc1c2c(cc3c1CCC3)CCC2			human, whole blood ex vivo	100 mg single dose, 12 h, single ascending dose, added: LPS and ATP		IL-1β inhibition	99.3%
CC[n+]1cccc2cc(/C=N/NC(=O)c3cc(C(=O)N/N=C/c4ccc5c(ccc[n+]5CC)c4)ncn3)ccc21	MYC parallel G4 DNA	FRET melting		1 µM, DNA 0.2 µM, added: duplex DNA competitor 10 µM		ΔTm	3.3 ± 0.2 °C
CC(C)(C)NCC(SS(=O)(=O)O)c1ccccc1 (centres unmarked)			Schistosoma mansoni-infected mice	200 mg/kg single, day 42, perfusion day 56		liver weight	4.05 g
O=[N+]([O-])C(=C\Nc1ccccc1O)/C=N/c1ccccc1O	Mus musculus	gene silencing, high-content imaging	LDR reporter GFP cells	retest run 2		AC50	15.8 µM
CC(C)(C)c1cc(-c2ccc3cccnc3n2)nc(-c2ccc3cccnc3n2)c1.COc1ccncc1.[Cl-].[Cl-].[Ru+2].c1ccc2cc3nc4c5cccnc5c5ncccc5c4nc3cc2c1	A-375			visible light 100 J/cm2	reference: dark EC50 over light EC50	phototherapeutic index	75
COC1OC(C)C(OC2OC(C)C(OS(=O)(=O)O)C(OC3OC(C)C(OC4OC(C)C(OS(=O)(=O)O)C(OC5OC(C)C(OC6OC(C)C(OS(=O)(=O)O)C(OC7OC(C)C(OC8OC(C)C(OS(=O)(=O)O)C(OS(=O)(=O)O)C8O)C(OS(=O)(=O)O)C7O)C6O)C(OS(=O)(=O)O)C5O)C4O)C(OS(=O)(=O)O)C3O)C2O)C(OS(=O)(=O)O)C1O (centres unmarked)			human plasma	128 µg/mL		prothrombin time	14.2 ± 0.4 s
CCc1nnc(NC(=O)c2cccc(C(=O)Nc3nnc(CC)s3)n2)s1	Mus musculus	gene silencing, high-content imaging	LDR reporter GFP cells	30 h, confirmation, mean of two runs		Emax	96%
COC1OC(C)C(OS(=O)(=O)O)C(OC2OC(C)C(OS(=O)(=O)O)C(OC3OC(C)C(OS(=O)(=O)O)C(OC4OC(C)C(OS(=O)(=O)O)C(OC5OC(C)C(OS(=O)(=O)O)C(OC6OC(C)C(OS(=O)(=O)O)C(OC7OC(C)C(OS(=O)(=O)O)C(OC8OC(C)C(OS(=O)(=O)O)C(OC9OC(C)C(OS(=O)(=O)O)C(OC%10OC(C)C(OS(=O)(=O)O)C(OC%11OC(C)C(OS(=O)(=O)O)C(OC%12OC(C)C(OS(=O)(=O)O)C(OS(=O)(=O)O)C%12O)C%11O)C%10O)C9O)C8O)C7O)C6O)C5O)C4O)C3O)C2O)C1O (centres unmarked)			human plasma	128 µg/mL	reference: control	prothrombin time prolongation	0.97 fold
CC[n+]1cccc2cc(/C=N/NC(=O)C(=O)N/N=C/c3ccc4c(ccc[n+]4CC)c3)ccc21	MYC parallel G4 DNA	FRET melting		1 µM, DNA 0.2 µM		ΔTm	3.6 ± 0.4 °C
CNS(=O)(=O)Nc1nccc(Cc2c(C)c3ccc(Oc4ncccc4F)cc3oc2=O)c1F	A253	cell viability		7 days		IC50	0.0627 µM
C[n+]1ccc(/C=N/NC(=O)c2cccc(C(=O)N/N=C/c3cc[n+](C)c4ccccc34)n2)c2ccccc21	MYC promoter parallel G-quadruplex DNA	UV melting		6 µM, 1 mM potassium, added: DNA 3 µM		delta Tm	27.5 °C
C=C(NC(=O)c1csc(-c2nc3c(cc2O)-c2nc(cs2)C(=O)NC(C(C)O)C(=O)NC(=C(C)OC)c2nc(cs2)C(=O)NC2c4nc(cs4)C(=O)NC(COC(=O)c4c5c6c(cccc6n4O)COC(=O)C(OC4CC(C)(O)C(N(C)C)C(C)O4)C2OC5)c2nc-3cs2)n1)C(N)=O (centres unmarked)	Streptococcus pneumoniae		-25, immunocompromised mice, lung infection	qd dosing		lung bacterial load at ED50	5.34 log CFU/g
COC1OC(C)C(OC2OC(C)C(OS(=O)(=O)O)C(OC3OC(C)C(OC4OC(C)C(OS(=O)(=O)O)C(OS(=O)(=O)O)C4O)C(OS(=O)(=O)O)C3O)C2O)C(OS(=O)(=O)O)C1O (centres unmarked)			human plasma	128 µg/mL	reference: control	prothrombin time prolongation	1 fold
C=CC(=O)Nc1cccc(Cn2ncc3cnc(Nc4cnn(CCOC)c4)nc32)c1	human PKAC-alpha	KINOMEscan		100 nM	reference: control	binding	100%

Structure (SMILES)	target or system	test	test system	setting	scale	measurement	value
Cc1ccc(C(C)C)c(OCc2ccc(C(=O)N/N=C/c3cccc(O)c3O)cc2)c1	Mus musculus	gene silencing, high-content imaging	LDR reporter GFP cells	30 h, retest, mean of two runs		Emax	40%
CN1CCCNC(=O)c2cccc(c2)C(=O)NCCCN(C)CCCNc2cccc3c2C(=O)c2cccc(c2C3=O)NCCC1	SAS	RNA-Seq, refers to: RAD18 mRNA		1 µM, 6 h	reference: untreated cells	log2 fold change	-0.792
C(=N\Nc1nc(-c2ccccn2)nc2ccccc12)/c1ccccc1	Mus musculus	gene silencing, high-content imaging	LDR reporter GFP cells	confirmation, mean of two runs		EC50	20 µM
CC[n+]1cccc2cc(/C=N/NC(=O)c3cccc(C(=O)N/N=C/c4ccc5c(ccc[n+]5CC)c4)n3)ccc21	MYC parallel G4 DNA	FRET melting		1 µM, DNA 0.2 µM		ΔTm	8.7 ± 1.9 °C
Cc1ncsc1-c1ccc(C(C)NC(=O)C2CC(O)CN2C(=O)C(NC(=O)CCCCCCCCCCN2CCCC(Nc3ncc(Cl)c(Nc4ccccc4S(=O)(=O)C(C)C)n3)C2)C(C)(C)C)cc1 (centres unmarked)	22Rv1	RNA-seq, refers to: SOGA1 mRNA		concentration not given	reference: DMSO	log2 fold change	-1.39
C=CC(=O)N1[C@H](c2ccc3c(c2)OCO3)c2[nH]c3ccccc3c2C[C@@H]1C(=O)N1CCN(C)CC1	human cyclin E1 N112C-3xFLAG:CDK2	co-IP with TMT proteomics, refers to: SNRNP200		concentration not given, O75643	reference: wild type DMSO	relative co-enrichment	135%
Nc1ncc(-c2cc(-c3cnn(CC(F)(F)F)c3)ncc2F)nc1C(=O)NC1CNCC(F)C1 (centres unmarked)	PIP5K1C	KINOMEscan		1 µM	reference: DMSO control	remaining binding	74%
O=C(N/N=C/c1ccc2c(ccc[n+]2Cc2ccccc2)c1)N/N=C/c1ccc2c(ccc[n+]2Cc2ccccc2)c1	hp2 hairpin duplex DNA	FRET melting		1 µM, added: ds26 10 µM		ΔTm	1.2 ± 0.3 °C
COc1ccc(NC(=O)CSc2nc3c(oc4ccccc43)c(=O)n2Cc2ccco2)cc1Cl	Mus musculus	gene silencing, high-content imaging	LDR reporter GFP cells	30 h, confirmation, mean of two runs		Emax	37%
CC[n+]1cccc2cc(/C=N/NC(=O)c3cncc(C(=O)N/N=C/c4ccc5c(ccc[n+]5CC)c4)n3)ccc21	MYC parallel G4 DNA	FRET melting		1 µM, DNA 0.2 µM, added: duplex DNA competitor 10 µM		ΔTm	8.4 ± 0.4 °C
CCCC(=O)N1CCN(c2ccc(NC(=O)c3ccc([N+](=O)[O-])o3)cc2Cl)CC1	Mus musculus	gene silencing, high-content imaging	LDR reporter GFP cells	30 h, retest, mean of two runs		Emax	39%
O=C(N/N=C/c1cc[n+](CC2CC2)c2ccccc12)c1cccc(C(=O)N/N=C/c2cc[n+](CC3CC3)c3ccccc23)n1	hp2 hairpin duplex DNA	FRET melting		1 µM		ΔTm	4 ± 1.4 °C
COc1cccc(/C=N/Nc2nc(Nc3ccccc3)nc(-n3nc(C)cc3C)n2)c1O	Mus musculus	gene silencing, high-content imaging	LDR reporter GFP cells	retest run 2		AC50	6.31 µM
Fc1cccc(COc2ccc(Nc3ncnc4ccc(-c5ccc(CN6CCCCC6)cc5)cc34)cc2Cl)c1	Leishmania major	parasite growth, resazurin		promastigote		EC50	8.4 µM
CCC(=O)N1CCN(c2ccc(NC(=O)c3ccc([N+](=O)[O-])o3)cc2Cl)CC1	Mus musculus	gene silencing, high-content imaging	LDR reporter GFP cells	retest run 1		AC50	2 µM
COC1CN([C@H]2CC[C@H]([C@@]3(C)Oc4c(Cl)cc(C(=O)NCc5c(SC)cc(C)[nH]c5=O)c(C)c4O3)CC2)C1		RNA-seq, refers to: SLC18A2 mouse homolog	mouse, HT-1376 xenograft, whole blood	dose not given	reference: vehicle	log2 fold change	0.562

Excerpt of the above:
Structure (SMILES)	target or system	test	test system	setting	scale	measurement	value
CN1CCCNC(=O)c2cccc(c2)C(=O)NCCCN(C)CCCNc2cccc3c2C(=O)c2cccc(c2C3=O)NCCC1	SAS	RNA-Seq, refers to: RAD18 mRNA		1 µM, 6 h	reference: untreated cells	log2 fold change	-0.792
C(=N\Nc1nc(-c2ccccn2)nc2ccccc12)/c1ccccc1	Mus musculus	gene silencing, high-content imaging	LDR reporter GFP cells	confirmation, mean of two runs		EC50	20 µM
